Results from different studies.
Parts stem from different laboratories: compare values within a part only. Several values in a cell are separate wells, animals, samples, runs or records.
Sequence of UniProt Q13233 (whole entry, looked up): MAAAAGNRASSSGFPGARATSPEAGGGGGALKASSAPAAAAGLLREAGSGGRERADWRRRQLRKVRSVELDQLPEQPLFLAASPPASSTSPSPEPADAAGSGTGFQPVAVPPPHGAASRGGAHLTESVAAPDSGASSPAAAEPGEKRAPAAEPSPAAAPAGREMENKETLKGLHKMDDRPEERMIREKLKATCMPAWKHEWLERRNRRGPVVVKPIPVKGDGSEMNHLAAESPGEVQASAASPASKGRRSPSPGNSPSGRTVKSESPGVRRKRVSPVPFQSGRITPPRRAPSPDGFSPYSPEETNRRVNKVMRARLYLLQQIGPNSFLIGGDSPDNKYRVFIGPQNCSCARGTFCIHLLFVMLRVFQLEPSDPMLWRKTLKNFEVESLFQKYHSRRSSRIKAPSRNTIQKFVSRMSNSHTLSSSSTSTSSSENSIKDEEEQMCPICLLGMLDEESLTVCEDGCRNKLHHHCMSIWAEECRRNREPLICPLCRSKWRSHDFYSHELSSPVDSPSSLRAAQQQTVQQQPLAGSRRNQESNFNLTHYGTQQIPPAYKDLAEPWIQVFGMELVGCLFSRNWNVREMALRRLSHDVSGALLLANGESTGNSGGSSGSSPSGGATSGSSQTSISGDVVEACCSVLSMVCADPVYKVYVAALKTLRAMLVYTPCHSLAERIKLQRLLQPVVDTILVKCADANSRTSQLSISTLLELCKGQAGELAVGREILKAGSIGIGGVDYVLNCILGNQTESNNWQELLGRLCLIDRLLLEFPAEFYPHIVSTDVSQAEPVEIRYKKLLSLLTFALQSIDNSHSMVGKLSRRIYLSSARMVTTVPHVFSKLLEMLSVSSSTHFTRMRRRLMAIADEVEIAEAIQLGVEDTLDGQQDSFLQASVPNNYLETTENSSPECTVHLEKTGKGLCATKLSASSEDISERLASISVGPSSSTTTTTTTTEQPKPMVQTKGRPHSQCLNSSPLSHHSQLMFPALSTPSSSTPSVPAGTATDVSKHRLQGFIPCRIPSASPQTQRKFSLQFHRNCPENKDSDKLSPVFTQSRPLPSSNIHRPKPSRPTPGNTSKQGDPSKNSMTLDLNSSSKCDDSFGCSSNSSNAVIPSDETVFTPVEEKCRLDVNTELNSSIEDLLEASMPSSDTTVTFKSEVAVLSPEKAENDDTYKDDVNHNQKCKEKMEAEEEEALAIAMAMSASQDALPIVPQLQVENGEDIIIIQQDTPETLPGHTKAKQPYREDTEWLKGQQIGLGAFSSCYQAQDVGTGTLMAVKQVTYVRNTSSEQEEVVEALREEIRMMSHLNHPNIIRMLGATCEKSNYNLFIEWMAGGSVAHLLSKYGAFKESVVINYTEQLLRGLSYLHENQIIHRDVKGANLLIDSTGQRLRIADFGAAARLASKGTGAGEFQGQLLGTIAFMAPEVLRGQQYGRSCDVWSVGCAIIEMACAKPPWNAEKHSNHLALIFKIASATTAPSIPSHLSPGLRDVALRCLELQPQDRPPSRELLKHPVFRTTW
Sequence of UniProt P42336 (whole entry, unmodified, looked up): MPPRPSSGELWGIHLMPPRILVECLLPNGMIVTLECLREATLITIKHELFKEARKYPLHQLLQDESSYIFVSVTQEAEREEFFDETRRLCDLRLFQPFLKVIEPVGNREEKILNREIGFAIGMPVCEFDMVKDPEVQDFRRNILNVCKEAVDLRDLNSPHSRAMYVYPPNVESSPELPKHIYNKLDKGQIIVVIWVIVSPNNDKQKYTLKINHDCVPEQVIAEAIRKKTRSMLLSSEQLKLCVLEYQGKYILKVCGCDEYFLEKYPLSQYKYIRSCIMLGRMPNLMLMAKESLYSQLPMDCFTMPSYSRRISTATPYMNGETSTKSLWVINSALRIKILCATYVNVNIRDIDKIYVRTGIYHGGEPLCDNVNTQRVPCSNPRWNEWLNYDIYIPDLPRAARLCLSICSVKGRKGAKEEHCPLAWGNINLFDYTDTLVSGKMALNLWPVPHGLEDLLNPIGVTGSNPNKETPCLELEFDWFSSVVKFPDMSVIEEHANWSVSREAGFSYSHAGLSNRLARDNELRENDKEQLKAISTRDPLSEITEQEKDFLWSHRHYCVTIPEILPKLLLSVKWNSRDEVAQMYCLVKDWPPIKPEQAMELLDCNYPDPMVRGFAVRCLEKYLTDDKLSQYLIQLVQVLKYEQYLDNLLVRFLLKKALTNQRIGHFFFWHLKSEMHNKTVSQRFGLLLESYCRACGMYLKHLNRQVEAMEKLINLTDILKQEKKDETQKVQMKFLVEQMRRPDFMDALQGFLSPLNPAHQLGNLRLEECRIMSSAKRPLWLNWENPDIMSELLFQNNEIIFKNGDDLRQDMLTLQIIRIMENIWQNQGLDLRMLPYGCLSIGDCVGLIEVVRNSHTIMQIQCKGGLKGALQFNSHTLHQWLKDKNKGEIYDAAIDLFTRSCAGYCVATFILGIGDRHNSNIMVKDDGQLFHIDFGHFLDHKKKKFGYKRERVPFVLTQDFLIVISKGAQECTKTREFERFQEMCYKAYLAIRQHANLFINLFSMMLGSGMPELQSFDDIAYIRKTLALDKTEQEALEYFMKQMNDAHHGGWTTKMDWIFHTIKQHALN
Sequence of UniProt P54760 (whole entry, looked up): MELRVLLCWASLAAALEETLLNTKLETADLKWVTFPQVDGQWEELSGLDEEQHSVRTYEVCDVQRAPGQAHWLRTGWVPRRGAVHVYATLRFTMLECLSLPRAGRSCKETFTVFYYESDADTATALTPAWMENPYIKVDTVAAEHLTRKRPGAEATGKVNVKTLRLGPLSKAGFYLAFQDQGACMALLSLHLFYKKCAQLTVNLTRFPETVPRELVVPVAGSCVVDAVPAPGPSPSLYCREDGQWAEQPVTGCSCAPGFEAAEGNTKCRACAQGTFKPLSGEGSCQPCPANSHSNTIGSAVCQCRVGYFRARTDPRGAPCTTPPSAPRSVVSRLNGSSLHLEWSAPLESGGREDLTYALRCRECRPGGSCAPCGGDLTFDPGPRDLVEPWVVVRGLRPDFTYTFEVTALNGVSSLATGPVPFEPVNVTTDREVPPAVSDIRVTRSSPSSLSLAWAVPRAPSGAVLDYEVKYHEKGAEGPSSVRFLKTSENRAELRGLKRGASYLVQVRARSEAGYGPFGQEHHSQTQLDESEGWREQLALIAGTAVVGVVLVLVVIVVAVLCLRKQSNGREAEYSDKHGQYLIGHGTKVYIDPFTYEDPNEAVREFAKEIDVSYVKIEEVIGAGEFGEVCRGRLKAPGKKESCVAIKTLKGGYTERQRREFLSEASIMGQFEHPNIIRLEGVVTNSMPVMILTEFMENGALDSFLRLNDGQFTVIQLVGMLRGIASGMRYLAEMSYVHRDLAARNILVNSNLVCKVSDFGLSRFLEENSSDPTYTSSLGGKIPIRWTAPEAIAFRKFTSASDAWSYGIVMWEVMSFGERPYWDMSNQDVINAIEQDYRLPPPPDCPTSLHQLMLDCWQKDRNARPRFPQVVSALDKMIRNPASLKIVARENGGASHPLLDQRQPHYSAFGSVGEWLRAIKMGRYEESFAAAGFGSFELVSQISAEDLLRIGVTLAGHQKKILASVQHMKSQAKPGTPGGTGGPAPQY

Series 1
Cell line: MDA-MB-468
Observed: cell viability
Technique: CellCounting-Lite
Tested at: 74.07 nM
Temperature: 37 °C
Reading: higher = more viable cells
Structure (SMILES) | luminescence signal
CCn1cnc2c(NCc3nc4cc(Cl)c(Cl)cc4[nH]3)nc(N3CCn4ncnc4C3)nc21 | 33800 a.u. and 47900 a.u. and 40200 a.u.
CC(=O)N1CCN(c2nc(NCc3nc4cc(Cl)c(Cl)cc4[nH]3)c3ncn(-c4cnn(C)c4)c3n2)CC1 | 116000 a.u. and 94900 a.u. and 122000 a.u.
CCn1cnc2c(NCc3nc4cc(Cl)c(Cl)cc4[nH]3)nc(N3CCN(C(=O)CNC(C)=O)CC3)nc21 | 31000 a.u. and 34500 a.u. and 36700 a.u.
CCn1cnc2c(NCc3nc4ccc(F)c(F)c4[nH]3)nc(N3CCn4ncnc4C3)nc21 | 174000 a.u. and 169000 a.u. and 168000 a.u.
CC(=O)N1CCN(c2nc(NCc3nc4cc(Cl)c(Cl)cc4[nH]3)c3ncn(C)c3n2)CC1 | 279000 a.u. and 226000 a.u.
CCn1cnc2c(NCc3nc4cc(Cl)c(Cl)cc4[nH]3)nc(N3CCN(S(C)(=O)=O)CC3)nc21 | 89300 a.u. and 80500 a.u. and 69900 a.u.
CC(=O)N1CCN(c2nc(NCc3nc4cc(Cl)c(Cl)cc4[nH]3)c3ncn(C(C)C)c3n2)CC1 | 473000 a.u. and 445000 a.u. and 502000 a.u.
CCn1cnc2c(NCc3nc4cc(Cl)c(Cl)cc4[nH]3)nc(N3CCN(c4ccccn4)CC3)nc21 | 564000 a.u. and 439000 a.u. and 445000 a.u.
CCn1cnc2c(NCc3nc4cc(Cl)c(Cl)cc4[nH]3)nc(N3CCN(C(=O)c4ccncc4)CC3)nc21 | 39100 a.u. and 38300 a.u. and 28900 a.u.
CCn1cnc2c(NCc3nc4cc(Cl)c(Cl)cc4[nH]3)nc(N3CCN(C(=O)[C@H](C)NC(C)=O)CC3)nc21 | 93400 a.u. and 113000 a.u. and 99800 a.u.
CCn1cnc2c(NCc3nc4cc(Cl)c(Cl)cc4[nH]3)nc(N3CCN(C(=O)c4ccccc4)CC3)nc21 | 70000 a.u. and 85200 a.u. and 91000 a.u.
CCn1cnc2c(NCc3nc4cc(Cl)c(Cl)cc4[nH]3)nc(N3CCN(Cc4ccncc4)CC3)nc21 | 116000 a.u. and 128000 a.u. and 102000 a.u.
CCn1cnc2c(NCc3nc4cc(Cl)c(Cl)cc4[nH]3)nc(N3CCC(NC(C)=O)CC3)nc21 | 249000 a.u. and 241000 a.u. and 256000 a.u.
CCCCOc1nc(NCc2nc3cc(Cl)c(Cl)cc3[nH]2)c2ncn(CC)c2n1 | 422000 a.u. and 333000 a.u. and 395000 a.u.
CCn1cnc2c(NCc3nc4cc(Cl)c(Cl)cc4[nH]3)nc(N3CCN(C(=O)c4cccnc4)CC3)nc21 | 36300 a.u. and 33800 a.u. and 37900 a.u.
Cn1cc(-n2cnc3c(NCc4nc5cc(Cl)c(Cl)cc5[nH]4)nc(N4CCNCC4)nc32)cn1 | 77600 a.u. and 65700 a.u. and 75900 a.u.
CCn1cnc2c(NCc3nc4cc(Cl)c(Cl)cc4[nH]3)nc(N3CCN(C(=O)c4ccccn4)CC3)nc21 | 52700 a.u. and 34900 a.u. and 27800 a.u.
CCn1cnc2c(NCc3nc4cc(F)c(F)cc4[nH]3)nc(N3CCn4ncnc4C3)nc21 | 225000 a.u. and 275000 a.u. and 241000 a.u.

Series 2
Structure (SMILES): C[C@@H]1CN(c2ccc(-c3cc(C(=O)NCCOCCOCCOCCOCCOCCOCCNC(=O)/C=C/c4[nH]cc(C(=O)N[C@@H](CC(N)=O)c5ccc(F)c(Cl)c5)c4-c4ccc(Cl)cc4F)ccc3F)cc2NC(=O)c2ccc(F)cc2C(F)(F)F)C[C@H](C)N1C
Observed: thermal unfolding
Technique: differential scanning fluorimetry
Tested at: 5.5 µM
Reading: higher = more unfolded
WDR5: WD repeat-containing protein 5 (WDR5, Homo sapiens, UniProt P61964)
DCAF1: DDB1- and CUL4-associated factor 1 (DCAF1, Homo sapiens, UniProt Q9Y4B6)
Sequence of UniProt Q9Y4B6 (whole entry, looked up): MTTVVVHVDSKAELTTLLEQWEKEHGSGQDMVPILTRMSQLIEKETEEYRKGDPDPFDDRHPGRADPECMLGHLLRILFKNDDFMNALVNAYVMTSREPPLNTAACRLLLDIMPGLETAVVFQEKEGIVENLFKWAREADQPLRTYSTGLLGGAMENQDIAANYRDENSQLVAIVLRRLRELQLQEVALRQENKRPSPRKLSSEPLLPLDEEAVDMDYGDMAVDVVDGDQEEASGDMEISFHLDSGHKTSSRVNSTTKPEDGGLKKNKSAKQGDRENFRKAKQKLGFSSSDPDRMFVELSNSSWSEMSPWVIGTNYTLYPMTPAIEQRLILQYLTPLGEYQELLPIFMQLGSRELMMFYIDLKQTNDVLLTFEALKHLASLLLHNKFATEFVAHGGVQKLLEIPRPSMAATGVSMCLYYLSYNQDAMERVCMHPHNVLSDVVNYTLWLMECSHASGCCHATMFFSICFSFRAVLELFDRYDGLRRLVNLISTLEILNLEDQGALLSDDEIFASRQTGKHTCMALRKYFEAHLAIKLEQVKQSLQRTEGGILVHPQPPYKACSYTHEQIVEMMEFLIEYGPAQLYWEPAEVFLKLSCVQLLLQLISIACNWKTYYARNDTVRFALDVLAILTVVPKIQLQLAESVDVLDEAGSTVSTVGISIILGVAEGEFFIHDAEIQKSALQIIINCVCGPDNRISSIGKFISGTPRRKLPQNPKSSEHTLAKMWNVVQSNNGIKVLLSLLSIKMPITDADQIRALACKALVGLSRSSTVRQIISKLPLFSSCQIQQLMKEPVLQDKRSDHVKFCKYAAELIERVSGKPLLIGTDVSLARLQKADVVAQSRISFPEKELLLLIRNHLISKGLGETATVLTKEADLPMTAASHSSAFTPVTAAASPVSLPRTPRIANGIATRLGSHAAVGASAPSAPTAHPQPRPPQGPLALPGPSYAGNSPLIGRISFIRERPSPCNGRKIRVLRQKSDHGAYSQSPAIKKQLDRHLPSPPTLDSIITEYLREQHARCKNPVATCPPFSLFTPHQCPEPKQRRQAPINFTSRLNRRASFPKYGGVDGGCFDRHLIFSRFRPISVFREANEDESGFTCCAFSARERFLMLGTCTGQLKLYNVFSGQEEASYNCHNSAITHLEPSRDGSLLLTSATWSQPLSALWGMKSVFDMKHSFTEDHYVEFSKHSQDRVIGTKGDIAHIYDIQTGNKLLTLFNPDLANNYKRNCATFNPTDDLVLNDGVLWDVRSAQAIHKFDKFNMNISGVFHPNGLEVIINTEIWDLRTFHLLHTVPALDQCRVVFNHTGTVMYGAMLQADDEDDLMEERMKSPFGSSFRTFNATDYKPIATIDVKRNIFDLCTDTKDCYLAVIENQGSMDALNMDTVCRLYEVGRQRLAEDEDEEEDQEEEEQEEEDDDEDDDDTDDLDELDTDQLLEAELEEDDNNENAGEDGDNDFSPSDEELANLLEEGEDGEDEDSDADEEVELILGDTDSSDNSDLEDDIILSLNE
target | conditions | SYPRO Orange fluorescence
WDR5 | 92.21 °C | 51500 a.u.
WDR5 | 68.41 °C | 22700 a.u.
WDR5 | 91.21 °C | 53100 a.u.
DCAF1 | 45.6 °C | 14700 a.u.
WDR5 | 83.01 °C | 64800 a.u.
DCAF1 | 69.81 °C | 48500 a.u.
DCAF1 | 66.81 °C | 51800 a.u.
WDR5 | 56.81 °C | 16000 a.u.
WDR5 | 39.8 °C | 14100 a.u.
WDR5 | 43 °C | 14600 a.u.
WDR5 | 88.01 °C | 57800 a.u.

Series 3
SMILES: COc1cc(-c2nc3ccc(C(=O)NCCCN(C)C)cc3n2C2CCC2)cc(OC)c1OC
Observed: binding
Technique: competition with immobilised ligand
Tested at: 1 µM
target | remaining binding
Ephrin type-A receptor 7 (EPHA7, Homo sapiens, UniProt Q15375) | 94%
Discoidin domain-containing receptor 2 (DDR2, Homo sapiens, UniProt Q16832) | 56%
Insulin receptor-related protein (INSRR, Homo sapiens, UniProt P14616) | 92%
Mitogen-activated protein kinase kinase kinase 1 (MAP3K1, Homo sapiens, UniProt Q13233) | 79%
Tyrosine-protein kinase ABL1, phosphorylated (ABL1, Homo sapiens, UniProt P00519, T315I) | 46%
Ephrin type-B receptor 4 (EPHB4, Homo sapiens, UniProt P54760) | 100%
Interleukin-1 receptor-associated kinase 4 (IRAK4, Homo sapiens, UniProt Q9NWZ3) | 80%
Serine/threonine-protein kinase D3 (PRKD3, Homo sapiens, UniProt O94806) | 82%
Phosphatidylinositol 4,5-bisphosphate 3-kinase catalytic subunit alpha isoform (PIK3CA, Homo sapiens, UniProt P42336, H1047L) | 63%
Serine/threonine-protein kinase Nek4 (NEK4, Homo sapiens, UniProt P51957) | 99%
Serine/threonine-protein kinase Nek3 (NEK3, Homo sapiens, UniProt P51956) | 76%
Serine/threonine-protein kinase tousled-like 2 (TLK2, Homo sapiens, UniProt Q86UE8) | 92%
STE20/SPS1-related proline-alanine-rich protein kinase (STK39, Homo sapiens, UniProt Q9UEW8) | 99%
Calcium/calmodulin-dependent protein kinase kinase 1 (CAMKK1, Homo sapiens, UniProt Q8N5S9) | 97%
Misshapen-like kinase 1 (MINK1, Homo sapiens, UniProt Q8N4C8) | 62%
High affinity nerve growth factor receptor (NTRK1, Homo sapiens, UniProt P04629) | 90%

Series 4
SMILES: CCN1/C(=C/C=C2\CCCC(/C=C/C3=[N+](CC)c4ccccc4C3(C)C)=C2NCCCCCCCCN2CCC(Nc3nc4ccccc4n3Cc3ccc(F)cc3)CC2)C(C)(C)c2ccccc21
Cell line: U-87 MG
Tested at: concentration not given
Baseline: DMSO
assay | log2 fold change
measured: SPOPL mRNA | 0.841
measured: TRAM2 mRNA | -2
measured: HSPB3 mRNA | -2.15
measured: STK24 mRNA | 0.861
measured: CDH7 mRNA | -1.83
measured: C10orf90 mRNA | -1.94
measured: TRAF1 mRNA | 2.38
measured: ACAP3 mRNA | -1.05
measured: SOST mRNA | -6.55
measured: PELI2 mRNA | 1.11
measured: MECOM mRNA | -1.38
measured: CCL20 mRNA | 4.81
measured: GNA13 mRNA | 0.979
measured: STEAP3 mRNA | -1.19
measured: IQCG mRNA | 1.91
measured: NUDT15 mRNA | -1.06

Excerpt of the above (series 4):
assay | log2 fold change
measured: GNA13 mRNA | 0.979
measured: STEAP3 mRNA | -1.19
measured: TRAM2 mRNA | -2
measured: HSPB3 mRNA | -2.15
measured: IQCG mRNA | 1.91
measured: CCL20 mRNA | 4.81
measured: PELI2 mRNA | 1.11
measured: ACAP3 mRNA | -1.05
measured: MECOM mRNA | -1.38
